Experimental data from different studies.
Lines come from different studies, so protocols differ. Numbers after ± are the reported error.
CYP2A6: Cytochrome P450 2A6 (CYP2A6, Homo sapiens, UniProt P11509)
Chain of UniProt P11509 (whole entry, looked up): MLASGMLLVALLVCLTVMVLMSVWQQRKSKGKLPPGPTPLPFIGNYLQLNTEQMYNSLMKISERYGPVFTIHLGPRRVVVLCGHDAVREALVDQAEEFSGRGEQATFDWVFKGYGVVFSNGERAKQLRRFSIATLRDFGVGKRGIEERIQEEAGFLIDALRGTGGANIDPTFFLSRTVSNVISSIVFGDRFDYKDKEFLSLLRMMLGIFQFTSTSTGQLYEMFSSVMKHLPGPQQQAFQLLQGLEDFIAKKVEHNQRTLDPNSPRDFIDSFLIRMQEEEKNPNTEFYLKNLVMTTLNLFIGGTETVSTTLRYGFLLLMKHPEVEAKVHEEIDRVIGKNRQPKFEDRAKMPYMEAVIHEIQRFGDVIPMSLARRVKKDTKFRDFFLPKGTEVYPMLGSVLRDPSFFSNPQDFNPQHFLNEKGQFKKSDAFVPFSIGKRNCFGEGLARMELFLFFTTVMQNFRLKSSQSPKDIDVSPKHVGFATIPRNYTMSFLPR
Alpha-carbonic anhydrase: Alpha-carbonic anhydrase (Enterococcus faecium, UniProt Q3XYE8)
USP20 ZnF-UBD domain: Ubiquitin carboxyl-terminal hydrolase 20, ZnF-UBD domain (USP20, Homo sapiens, UniProt Q9Y2K6)
Chain of UniProt Q9Y2K6 (whole entry, looked up): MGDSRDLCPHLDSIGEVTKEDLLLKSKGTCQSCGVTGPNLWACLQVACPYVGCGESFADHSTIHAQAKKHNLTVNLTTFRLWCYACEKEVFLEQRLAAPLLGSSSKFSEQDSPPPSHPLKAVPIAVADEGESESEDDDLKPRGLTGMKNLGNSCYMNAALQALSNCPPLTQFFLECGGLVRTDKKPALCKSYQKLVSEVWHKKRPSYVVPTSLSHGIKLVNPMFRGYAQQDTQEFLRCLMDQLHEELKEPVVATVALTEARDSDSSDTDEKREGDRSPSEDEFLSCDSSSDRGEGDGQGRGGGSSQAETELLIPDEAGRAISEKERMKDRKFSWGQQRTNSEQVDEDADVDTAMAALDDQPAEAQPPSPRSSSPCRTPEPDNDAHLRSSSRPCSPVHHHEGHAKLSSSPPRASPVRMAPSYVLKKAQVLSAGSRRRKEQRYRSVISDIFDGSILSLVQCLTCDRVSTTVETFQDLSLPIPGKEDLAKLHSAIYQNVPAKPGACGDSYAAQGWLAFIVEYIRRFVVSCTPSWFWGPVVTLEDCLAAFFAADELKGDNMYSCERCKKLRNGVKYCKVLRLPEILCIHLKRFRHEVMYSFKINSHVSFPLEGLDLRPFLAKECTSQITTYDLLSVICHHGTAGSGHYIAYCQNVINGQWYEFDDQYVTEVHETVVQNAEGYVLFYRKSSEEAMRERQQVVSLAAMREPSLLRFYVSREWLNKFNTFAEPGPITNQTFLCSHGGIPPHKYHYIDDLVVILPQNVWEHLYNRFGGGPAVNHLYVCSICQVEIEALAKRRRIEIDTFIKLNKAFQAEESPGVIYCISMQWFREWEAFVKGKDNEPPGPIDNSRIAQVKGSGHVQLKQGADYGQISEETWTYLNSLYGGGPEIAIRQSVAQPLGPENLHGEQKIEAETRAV
ZBTB11/CRBN: ZBTB11/CRBN (Homo sapiens, UniProt O95625+Q96SW2)
Chain of UniProt Q96SW2 (whole entry, looked up): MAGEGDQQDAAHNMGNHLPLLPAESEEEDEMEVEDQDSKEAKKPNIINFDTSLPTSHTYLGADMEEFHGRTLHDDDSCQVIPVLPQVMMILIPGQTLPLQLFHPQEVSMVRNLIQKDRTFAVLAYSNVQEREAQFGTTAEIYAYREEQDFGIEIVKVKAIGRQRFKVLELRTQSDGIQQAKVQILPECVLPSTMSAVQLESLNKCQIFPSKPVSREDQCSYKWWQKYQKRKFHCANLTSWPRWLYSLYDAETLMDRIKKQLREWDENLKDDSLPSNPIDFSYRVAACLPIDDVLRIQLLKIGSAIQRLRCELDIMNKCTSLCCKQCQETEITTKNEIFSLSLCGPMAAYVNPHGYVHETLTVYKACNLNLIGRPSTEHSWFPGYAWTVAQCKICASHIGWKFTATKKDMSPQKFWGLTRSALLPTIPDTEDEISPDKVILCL
Chain of UniProt O95625 (whole entry, looked up): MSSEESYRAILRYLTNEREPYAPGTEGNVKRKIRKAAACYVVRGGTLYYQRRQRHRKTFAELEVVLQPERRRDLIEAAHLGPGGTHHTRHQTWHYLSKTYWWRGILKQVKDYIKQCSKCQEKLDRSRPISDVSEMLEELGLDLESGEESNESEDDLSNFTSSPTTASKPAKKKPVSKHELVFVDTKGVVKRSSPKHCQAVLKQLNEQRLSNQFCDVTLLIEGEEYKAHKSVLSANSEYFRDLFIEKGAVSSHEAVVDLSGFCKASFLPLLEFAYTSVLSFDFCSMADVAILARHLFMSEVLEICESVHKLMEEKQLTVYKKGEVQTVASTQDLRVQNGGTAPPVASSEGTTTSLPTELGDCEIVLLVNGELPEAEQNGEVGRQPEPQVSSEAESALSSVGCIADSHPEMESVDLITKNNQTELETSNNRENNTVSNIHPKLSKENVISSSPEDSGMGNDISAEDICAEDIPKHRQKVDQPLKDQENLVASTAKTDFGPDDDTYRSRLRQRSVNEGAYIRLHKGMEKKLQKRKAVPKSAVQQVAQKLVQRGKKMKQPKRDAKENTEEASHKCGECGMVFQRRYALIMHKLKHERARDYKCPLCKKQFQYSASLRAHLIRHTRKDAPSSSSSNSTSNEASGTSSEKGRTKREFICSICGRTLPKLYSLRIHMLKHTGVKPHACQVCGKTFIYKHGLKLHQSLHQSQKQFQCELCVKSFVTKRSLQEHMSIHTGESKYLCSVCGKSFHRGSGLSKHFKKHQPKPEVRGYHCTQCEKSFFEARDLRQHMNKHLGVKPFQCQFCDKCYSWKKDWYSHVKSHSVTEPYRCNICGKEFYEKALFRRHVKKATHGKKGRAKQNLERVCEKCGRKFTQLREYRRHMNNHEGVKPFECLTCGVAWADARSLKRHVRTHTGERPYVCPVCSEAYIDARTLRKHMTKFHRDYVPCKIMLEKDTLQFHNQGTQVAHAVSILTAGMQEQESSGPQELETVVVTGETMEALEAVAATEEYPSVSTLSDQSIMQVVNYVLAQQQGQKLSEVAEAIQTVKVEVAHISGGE
USP49 ZnF-UBD domain: Ubiquitin carboxyl-terminal hydrolase 49, ZnF-UBD domain (USP49, Homo sapiens, UniProt Q70CQ1)
Chain of UniProt Q70CQ1 (whole entry, looked up): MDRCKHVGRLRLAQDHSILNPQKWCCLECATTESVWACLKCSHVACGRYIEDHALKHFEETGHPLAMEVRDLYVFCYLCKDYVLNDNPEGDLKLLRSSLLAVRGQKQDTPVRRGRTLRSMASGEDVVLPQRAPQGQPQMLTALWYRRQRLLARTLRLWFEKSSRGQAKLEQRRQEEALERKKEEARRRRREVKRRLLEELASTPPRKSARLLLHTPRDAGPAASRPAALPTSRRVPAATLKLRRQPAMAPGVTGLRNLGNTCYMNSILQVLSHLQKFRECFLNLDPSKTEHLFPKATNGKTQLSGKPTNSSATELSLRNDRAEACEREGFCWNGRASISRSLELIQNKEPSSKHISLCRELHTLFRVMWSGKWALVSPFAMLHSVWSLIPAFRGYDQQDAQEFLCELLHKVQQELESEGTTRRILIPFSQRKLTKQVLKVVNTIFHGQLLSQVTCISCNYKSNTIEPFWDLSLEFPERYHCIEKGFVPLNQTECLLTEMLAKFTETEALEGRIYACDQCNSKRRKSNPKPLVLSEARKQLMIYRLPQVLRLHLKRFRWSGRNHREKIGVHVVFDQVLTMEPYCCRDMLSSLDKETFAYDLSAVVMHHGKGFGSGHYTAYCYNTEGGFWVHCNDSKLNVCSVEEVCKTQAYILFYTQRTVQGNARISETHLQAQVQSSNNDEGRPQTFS
PLEKHA5 PH domain: Pleckstrin homology domain-containing family A member 5, PH domain (PLEKHA5, Homo sapiens, UniProt Q9HAU0)
Chain of UniProt Q9HAU0 (whole entry, looked up): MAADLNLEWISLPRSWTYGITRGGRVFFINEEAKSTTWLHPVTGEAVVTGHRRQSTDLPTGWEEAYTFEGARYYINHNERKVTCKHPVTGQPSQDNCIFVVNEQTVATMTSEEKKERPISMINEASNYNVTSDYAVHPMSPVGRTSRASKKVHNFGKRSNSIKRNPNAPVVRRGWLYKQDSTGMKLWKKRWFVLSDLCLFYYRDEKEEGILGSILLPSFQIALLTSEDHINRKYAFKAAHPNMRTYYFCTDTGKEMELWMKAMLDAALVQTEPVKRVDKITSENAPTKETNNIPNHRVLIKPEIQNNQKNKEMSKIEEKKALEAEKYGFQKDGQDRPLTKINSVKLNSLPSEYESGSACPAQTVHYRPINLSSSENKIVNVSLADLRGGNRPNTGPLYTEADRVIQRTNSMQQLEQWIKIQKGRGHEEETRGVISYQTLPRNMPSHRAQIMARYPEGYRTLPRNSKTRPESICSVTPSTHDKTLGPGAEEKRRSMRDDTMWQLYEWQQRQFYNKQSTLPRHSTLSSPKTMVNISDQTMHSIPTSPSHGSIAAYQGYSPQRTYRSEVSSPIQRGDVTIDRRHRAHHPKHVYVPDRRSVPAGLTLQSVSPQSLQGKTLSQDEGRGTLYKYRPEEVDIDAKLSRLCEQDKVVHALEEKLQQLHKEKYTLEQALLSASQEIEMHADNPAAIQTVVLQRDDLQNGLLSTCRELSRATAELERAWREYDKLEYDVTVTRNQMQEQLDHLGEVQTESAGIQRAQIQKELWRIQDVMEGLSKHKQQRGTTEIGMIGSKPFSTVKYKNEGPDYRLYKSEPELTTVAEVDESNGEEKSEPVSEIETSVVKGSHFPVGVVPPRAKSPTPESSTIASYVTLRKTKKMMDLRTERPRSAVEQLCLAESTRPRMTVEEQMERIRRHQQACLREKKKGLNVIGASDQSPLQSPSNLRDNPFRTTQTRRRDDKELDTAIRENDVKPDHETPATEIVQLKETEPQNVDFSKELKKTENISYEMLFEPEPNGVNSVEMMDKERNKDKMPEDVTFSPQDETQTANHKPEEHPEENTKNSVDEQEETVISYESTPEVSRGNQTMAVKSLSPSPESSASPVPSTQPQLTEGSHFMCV

`OC(Cn1cncn1)(Cn1cncn1)c1ccc(F)cc1F` has a Kd of 8.57 µM (CYP2A6; binding; 20 min, pH 7.4, purified protein, 2% DMSO).
The Kb of `COc1cc(Cl)c(S(=O)(=O)N2CCCC(C)C2)cc1Cl` (stereo not drawn) is reported as 0.0016 µM (Melanopsin (OPN4, Homo sapiens, UniProt Q9UHM6); calcium release, antagonist; CHO cells expressing OPN4).
The Kd of `COC(=O)C[C@@H]1N=C(c2ccc(Cl)cc2)c2c(sc(C(=O)NCCOCCNC(=O)C[C@@H]3N=C(c4ccc(Cl)cc4)c4c(sc(C)c4C)-n4c(C)nnc43)c2C)-n2c(C)nnc21` is reported as 2.7e-06 µM (Bromodomain-containing protein 3, BD2 (BRD3, Homo sapiens, UniProt Q15059)).
With `CC1(C(=O)Nc2nnc(S(N)(=O)=O)s2)CC1` the Ki was 0.0136 µM (Alpha-carbonic anhydrase; CO2 hydration, inhibitor, stopped-flow kinetics).
For `O=C(O)COc1cnc2ccccc2n1`, the Kd was greater than 1000 µM (USP20 ZnF-UBD domain).
The IC50 of `CN1CCN(c2ccc(Nc3ncc4cc(C#N)c(=O)n(C5CCCC5)c4n3)cc2)CC1` is reported as 0.0692 µM (PAK3 (Homo sapiens, UniProt O75914)).
`O=C1CCC(N2C(=O)C=C(Nc3cccc(-c4cn(CCc5ccc(C(F)(F)F)c(Cl)c5)nn4)c3)C2=O)C(=O)N1` (stereo not drawn) gave a DC50 of 17 µM (ZBTB11/CRBN; degrader, HiBiT luminescence, item: endogenous HiBiT-tagged protein).
`COc1ccc(C[C@H](N)C(=O)N[C@H]2[C@@H](O)[C@H](n3cnc4c(N(C)C)ncnc43)O[C@@H]2CO)cc1`: “coregulator peptide Kd change” “no effect” (Nuclear receptor subfamily 5 group A member 2, ligand-binding domain (NR5A2, Homo sapiens, UniProt O00482); corepressor binding, fluorescence polarization; concentration not given, ligand-binding domain, added: SHP peptide; baseline: DMSO).
For `C[C@H](Cc1ccccc1)Nc1ncnc2c1ncn2[C@@H]1O[C@H](CO)[C@@H](O)[C@H]1O`, the Kd was 0.0053 ± 0.0005 µM (adenosine A1 receptor, sheep; competition binding; striatum membranes; second site, dimer model, added: 0.009 nM [3H]DPCPX).
With `CCC(C)(NCCc1ccc(OC)c(Cl)c1)c1cccc(NC2=CC(=O)N(C3CCC(=O)NC3=O)C2=O)c1` (stereo not drawn) the DC50 was 27 µM (ZBTB11/CRBN; degrader, HiBiT luminescence, item: endogenous HiBiT-tagged protein).
`O=C(O)CNC(=O)c1ccccc1` — result for “z-scored log2 fold change”: -1.11 (binding, equilibrium dialysis LC-MS; 5 µM, thermostabilized A2AR-BRIL construct; baseline: no-protein control, direction not given).
For `O=C(O)CCc1nc2ncccn2n1`, the Kd was greater than 1000 µM (USP49 ZnF-UBD domain).
The tissue uptake of `CC(C)C[C@H](NC(=O)C[C@H](O)[C@H](CC(C)C)NC(=O)[C@H](Cc1c[nH]cn1)NC(=O)CNC(=O)[C@@H](NC(=O)[C@H](C)NC(=O)[C@H](Cc1c[nH]c2ccccc12)NC(=O)[C@H](CCC(N)=O)NC(=O)[C@@H](Cc1ccccc1)NC(=O)COCCOCCNC(=O)CCC(C(=O)O)N1CCN(CC(=O)O)CCN(CC(=O)O)CCN(CC(=O)O)CC1)C(C)C)C(N)=O` (stereo partly drawn) [lutetium-177 labelled] is reported as 0.04 ± 0.04 %ID/g (female BALB/c nu/nu mice, muscle; intravenous, 50 pmol, 24 h).
With `CC(C)[C@H](NC(=O)[C@H](Cc1ccc(O)cc1)NC(=O)[C@H](Cc1ccc(O)cc1)NC(=O)[C@@H]1CCCN1C(=O)[C@H](CCC(=O)O)NC(=O)[C@H](CCC(=O)O)NC(=O)[C@H](Cc1c[nH]c2ccccc12)NC(=O)[C@@H]1CCCN1C(=O)[C@@H](NC(=O)[C@H](CCC(N)=O)NC(=O)c1ccc2c(c1)C(=O)OC21c2ccc(O)cc2Oc2cc(O)ccc21)C(C)C)C(=O)N[C@H](C(=O)N[C@@H](CCCCN)C(=O)N[C@@H](CCCCN)C(=O)N[C@@H](CO)C(=O)N[C@@H](CO)C(=O)NCC(=O)NCC(N)=O)C(C)C` the plasma concentration was 193 ng/mL (human, plasma; intravenous infusion, 400 mg, 2 h).
Under “z-scored log2 fold change”, `C[C@H](CCC(=O)O)[C@H]1CC[C@H]2[C@@H]3[C@H](O)C[C@@H]4C[C@H](O)CC[C@]4(C)[C@H]3C[C@H](O)[C@]12C` is recorded as 3.98 (binding, equilibrium dialysis LC-MS; 5 µM, thermostabilized A2AR-BRIL construct; baseline: no-protein control, direction not given).
`CC(C)(NCCc1ccc(C(F)(F)F)c(Cl)c1)c1cccc(NC2=CC(=O)N(C3CCC(=O)NC3=O)C2=O)c1` (stereo not drawn) has a DC50 of 0.14 ± 0.07 µM (ZBTB11/CRBN; degrader; human cells).
The Ki of `CC(C(=O)Nc1nnc(S(N)(=O)=O)s1)C1CCCCC1` (stereo not drawn) is reported as 0.0198 µM (Alpha-carbonic anhydrase; CO2 hydration, inhibitor, stopped-flow kinetics).
`Cc1ccc(C(=O)Nc2ccc(CN3CCN(C)CC3)c(C(F)(F)F)c2)cc1C#Cc1cnc2cccnn12` gave an inhibition of 83.4% (NLRP3 inflammasome (mouse); mouse BMDM; 10 µM).
With `COc1cccc(C(=O)CC(SCc2ccc(Cl)cc2)C(=O)O)c1` (stereo not drawn) the Ki was 29.6 ± 3.3 µM (PLEKHA5 PH domain; PLEKHA5 PI(4,5)P2 binding, fluorescence polarization; added: BODIPY-PI(4,5)P2 tracer).
For `CC[C@@H]1[C@H](F)C(=O)N[C@@H]1COc1nccc2cc(C(N)=O)c(OC)cc12`, the IC50 was greater than 5 µM (GSK3A (Homo sapiens, UniProt P49840); ATP-site probe binding, ActivX profiling; THP-1 cell lysate; Lys2 site).
The Kd of `O=C(O)CCn1cnc2ccccc21` is reported as greater than 1000 µM (USP20 ZnF-UBD domain).
`OC[C@H]1OC(O)[C@H](O)[C@@H](O)[C@@H]1O` (stereo partly drawn) has a Ki of 3100 ± 900 µM (Hexokinase-3 (HK3, Homo sapiens, UniProt P52790, A499V); substrate inhibition; mutant A499V, partial substrate inhibition model, added: ATP 20 mM).
The tissue uptake of `CC(C)C[C@H](NC(=O)C[C@H](O)[C@H](CC(C)C)NC(=O)[C@H](Cc1c[nH]cn1)NC(=O)CNC(=O)[C@@H](NC(=O)[C@H](C)NC(=O)[C@H](Cc1c[nH]c2ccccc12)NC(=O)[C@H](CCC(N)=O)NC(=O)[C@@H](Cc1ccccc1)NC(=O)COCCOCCNC(=O)CCC(C(=O)O)N1CCN(CC(=O)O)CCN(CC(=O)O)CC1)C(C)C)C(N)=O` (stereo partly drawn) [lutetium-177 labelled] is reported as 0.07 ± 0.04 %ID/g (female BALB/c nu/nu mice, lung; intravenous, 50 pmol, 24 h).
`NS(=O)(=O)c1nnc(NC(=O)CN2CCC(F)(F)CC2)s1` has a Ki of 0.0198 µM (Alpha-carbonic anhydrase; CO2 hydration, inhibitor, stopped-flow kinetics).
For `CCC(C)(NCCc1ccc(OC)cc1)c1cccc(NC2=CC(=O)N(C3CCC(=O)NC3=O)C2=O)c1` (stereo not drawn), the DC50 was 28 µM (ZBTB11/CRBN; degrader, HiBiT luminescence, item: endogenous HiBiT-tagged protein).
The Ki of `CCOc1ccc(C(=O)CC(SCc2ccc(Br)cc2)C(=O)O)cc1` (stereo not drawn) is reported as 47.9 ± 7.8 µM (PLEKHA5 PH domain; PLEKHA5 PI(4,5)P2 binding, fluorescence polarization; added: BODIPY-PI(4,5)P2 tracer).
With `NS(=O)(=O)c1nnc(NC(=O)C(F)CC2CCCCC2)s1` (stereo not drawn) the Ki was 0.022 µM (Alpha-carbonic anhydrase; CO2 hydration, inhibitor, stopped-flow kinetics).
The Kd of `O=C(O)Cn1cnc2c(oc3ccccc32)c1=O` is reported as 426 µM (USP20 ZnF-UBD domain).
`NS(=O)(=O)c1cnc(NC(=O)CCC2CCCCC2)s1` has a Ki of 0.674 µM (Alpha-carbonic anhydrase; CO2 hydration, inhibitor, stopped-flow kinetics).
`CCOc1ccc(C(=O)CC(SCc2ccc(Cl)cc2)C(=O)OC)cc1` (stereo not drawn) gave a Ki of 135 ± 20 µM (PLEKHA5 PH domain; PLEKHA5 PI(4,5)P2 binding, fluorescence polarization; added: BODIPY-PI(4,5)P2 tracer).
`O=C(O)Cn1cnc2ccccc2c1=O` gave a Kd of greater than 1000 µM (USP49 ZnF-UBD domain).
The DC50 of `CCC(C)(NCCc1cc(C(F)(F)F)cc(C(F)(F)F)c1)c1cccc(NC2=CC(=O)N(C3CCC(=O)NC3=O)C2=O)c1` (stereo not drawn) is reported as 13 ± 3.5 µM (ZBTB11/CRBN; degrader, HiBiT luminescence, item: endogenous HiBiT-tagged protein).
With `NS(=O)(=O)c1nnc(NC(=O)CCc2ccc(F)cc2)s1` the Ki was 0.0312 µM (Alpha-carbonic anhydrase; CO2 hydration, inhibitor, stopped-flow kinetics).
The tissue uptake of `N=C(N)NCCC[C@@H](NC(=O)CCOCCOCCNC(=O)[C@H](CCCCNC(=O)CC[C@H](NC(=O)c1ccc(NCc2cnc3nc(N)[nH]c(=O)c3n2)cc1)C(=O)O)NC(=O)CO/N=C/[C@H](F)[C@@H](O)[C@H](O)[C@H](O)CO)C(=O)NCC(=O)N[C@H](CC(=O)O)C(N)=O` [fluorine-18 labelled] is reported as 0.51 ± 0.15 %ID/g (nude mouse, female, blood; intravenous, 1 µg, 2.5 h).
For `O=C1CCC(N2C(=O)C=C(Nc3cccc(C4CCN(CCc5ccc(C(F)(F)F)c(Cl)c5)CC4)c3)C2=O)C(=O)N1` (stereo not drawn), the DC50 was 5.6 µM (ZBTB11/CRBN; degrader, HiBiT luminescence, item: endogenous HiBiT-tagged protein).
`O=C1CCC(N2C(=O)C=C(Nc3cccc(C4(NCCc5ccc(Cl)c(C(F)(F)F)c5)CCC4)c3)C2=O)C(=O)N1` (stereo not drawn) gave a DC50 of 0.62 µM (ZBTB11/CRBN; degrader, HiBiT; MIA PaCa-2 (ZBTB11/CRBN-HiBiT knock-in); 24 h).
With `COc1cc2c(Oc3ccc4[nH]c(C)cc4c3F)ncnc2cc1OCCCN1CCCC1` the inhibition was 28.9% (NLRP3 inflammasome (mouse); mouse BMDM; 10 µM).
For `CCn1c(-c2nc3ccc(C(=O)N4CCCC(N)C4)cc3n2C)cc2ccccc21` (stereo not drawn), the EC50 was greater than 31.6 µM (HTR1B (Homo sapiens, UniProt P28222); agonist, GTPγS binding).
With `O=C(O)CCC(=O)c1cccs1` the Kd was greater than 1000 µM (USP49 ZnF-UBD domain).
With `COc1cc2c(cc1OC)C1CC(=O)C(CC(C)C)CN1CC2` (stereo not drawn) the IC50 was 0.23 µM (SLC18A2 (Homo sapiens, UniProt Q05940, Y433A); transporter uptake, fluorescence imaging; mutant Y433A, added: 5 µM FFN206).
`Cc1cccc(C(=O)Nc2nnc(S(N)(=O)=O)s2)c1` gave a Ki of 0.0281 µM (Alpha-carbonic anhydrase; CO2 hydration, inhibitor, stopped-flow kinetics).
`CC(C)(CNC1(c2cccc(NC3=CC(=O)N(C4CCC(=O)NC4=O)C3=O)c2)CCC1)c1ccc(C(F)(F)F)c(Cl)c1` (stereo not drawn) has a DC50 of 2 ± 2.7 µM (ZBTB11/CRBN; degrader; human cells).
The Kd of `O=C(O)Cc1nc2ccccc2[nH]1` is reported as greater than 1000 µM (Ubiquitin carboxyl-terminal hydrolase 39, ZnF-UBD domain (Homo sapiens, UniProt Q53GS9)).
`O=C(OCC1COC(Cn2ccnc2)(c2ccc(Cl)cc2Cl)O1)c1ccccc1` (stereo not drawn) gave a Kd of 9.13 µM (CYP2A6; binding; 20 min, pH 7.4, purified protein, 2% DMSO).
`O=C(O)CCn1ccccc1=O` has a Kd of greater than 1000 µM (USP20 ZnF-UBD domain).
`NS(=O)(=O)c1nnc(NC(=O)CCCCC2CCCCC2)s1` has a Ki of 0.085 µM (Alpha-carbonic anhydrase; CO2 hydration, inhibitor, stopped-flow kinetics).
For `CN(CCc1ccc(Cl)c(C(F)(F)F)c1)C1(c2cccc(NC3=CC(=O)N(C4CCC(=O)NC4=O)C3=O)c2)CCC1` (stereo not drawn), the DC50 was 1.98 µM (ZBTB11/CRBN; degrader; human cells).
`CCCCC[C@H](O)/C=C/[C@H]1[C@H](O)CC(=O)[C@@H]1C/C=C\CCCC(=O)O` gave an EC50 of 0.0302 µM (PTGER1 (Homo sapiens, UniProt P34995, F334L/G92S); IP1 accumulation, agonist; AD293).
